Experimental data of several laboratories.
± marks the error that the study gave.
Uncharacterized protein: Uncharacterized protein (Trypanosoma brucei brucei, UniProt Q386Q8)
Gria1: Glutamate receptor 1 (Gria1, Rattus norvegicus, UniProt P19490)
Sequence of UniProt P19490 (whole entry, looked up): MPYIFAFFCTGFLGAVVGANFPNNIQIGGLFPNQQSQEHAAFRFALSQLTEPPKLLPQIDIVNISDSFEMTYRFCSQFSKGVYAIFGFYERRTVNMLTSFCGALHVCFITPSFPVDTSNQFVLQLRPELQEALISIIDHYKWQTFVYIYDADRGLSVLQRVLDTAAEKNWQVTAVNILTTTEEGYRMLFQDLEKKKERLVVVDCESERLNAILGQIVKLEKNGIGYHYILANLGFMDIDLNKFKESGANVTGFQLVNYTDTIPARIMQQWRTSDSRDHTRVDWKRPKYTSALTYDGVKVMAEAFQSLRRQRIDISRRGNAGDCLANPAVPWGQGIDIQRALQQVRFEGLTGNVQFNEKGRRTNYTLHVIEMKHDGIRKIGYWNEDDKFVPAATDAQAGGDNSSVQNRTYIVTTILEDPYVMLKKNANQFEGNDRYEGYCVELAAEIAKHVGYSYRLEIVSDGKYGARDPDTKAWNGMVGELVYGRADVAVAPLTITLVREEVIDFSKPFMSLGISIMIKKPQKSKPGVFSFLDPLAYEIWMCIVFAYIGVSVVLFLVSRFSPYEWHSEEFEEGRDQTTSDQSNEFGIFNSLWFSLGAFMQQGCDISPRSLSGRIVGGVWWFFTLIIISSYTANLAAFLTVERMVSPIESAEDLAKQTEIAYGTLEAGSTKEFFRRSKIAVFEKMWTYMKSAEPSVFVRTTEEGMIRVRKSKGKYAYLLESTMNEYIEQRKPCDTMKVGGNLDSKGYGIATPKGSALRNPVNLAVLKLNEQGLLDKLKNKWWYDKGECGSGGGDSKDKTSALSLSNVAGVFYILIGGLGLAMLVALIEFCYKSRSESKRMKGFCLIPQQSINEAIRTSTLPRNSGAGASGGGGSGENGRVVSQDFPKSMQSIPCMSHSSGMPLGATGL
CAMK2D: Calcium/calmodulin-dependent protein kinase type II subunit delta (CAMK2D, Homo sapiens, UniProt Q13557)
Sequence of UniProt Q13557 (whole entry, looked up): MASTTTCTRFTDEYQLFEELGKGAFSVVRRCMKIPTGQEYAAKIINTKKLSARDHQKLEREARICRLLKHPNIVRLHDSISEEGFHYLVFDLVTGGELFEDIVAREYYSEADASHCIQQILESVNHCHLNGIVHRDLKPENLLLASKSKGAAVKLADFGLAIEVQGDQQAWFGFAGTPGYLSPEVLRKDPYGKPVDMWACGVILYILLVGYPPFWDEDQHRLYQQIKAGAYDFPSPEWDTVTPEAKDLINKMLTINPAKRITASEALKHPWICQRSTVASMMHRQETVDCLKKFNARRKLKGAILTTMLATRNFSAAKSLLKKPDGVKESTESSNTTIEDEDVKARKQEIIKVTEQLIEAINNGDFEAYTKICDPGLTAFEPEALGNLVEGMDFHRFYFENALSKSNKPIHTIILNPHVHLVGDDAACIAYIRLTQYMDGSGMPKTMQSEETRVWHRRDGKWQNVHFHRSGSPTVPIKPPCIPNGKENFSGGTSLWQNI
DNA dC->dU-editing enzyme APOBEC-3B: DNA dC->dU-editing enzyme APOBEC-3B (Homo sapiens, UniProt Q9UH17)
Sequence of UniProt Q9UH17 (whole entry, looked up): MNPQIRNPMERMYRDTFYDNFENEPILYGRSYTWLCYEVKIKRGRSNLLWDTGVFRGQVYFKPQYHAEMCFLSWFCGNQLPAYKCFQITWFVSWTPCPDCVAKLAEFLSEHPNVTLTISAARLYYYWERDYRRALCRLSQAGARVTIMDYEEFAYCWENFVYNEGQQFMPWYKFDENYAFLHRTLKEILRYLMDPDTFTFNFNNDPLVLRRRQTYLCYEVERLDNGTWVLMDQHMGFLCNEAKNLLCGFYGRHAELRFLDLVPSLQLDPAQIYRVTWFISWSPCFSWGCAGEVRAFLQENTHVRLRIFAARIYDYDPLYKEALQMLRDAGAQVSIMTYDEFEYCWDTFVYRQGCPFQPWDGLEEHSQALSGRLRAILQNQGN
ppa: Inorganic pyrophosphatase (ppa, Escherichia coli, UniProt P0A7A9)
Sequence of UniProt P0A7A9 (whole entry, looked up): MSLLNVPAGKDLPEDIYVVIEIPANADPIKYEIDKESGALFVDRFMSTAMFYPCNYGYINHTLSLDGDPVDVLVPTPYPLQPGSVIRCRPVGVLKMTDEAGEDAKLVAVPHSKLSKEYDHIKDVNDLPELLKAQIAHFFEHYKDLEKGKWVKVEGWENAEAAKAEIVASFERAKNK
JAK1: Tyrosine-protein kinase JAK1 (JAK1, Homo sapiens, UniProt P23458)
Sequence of UniProt P23458 (whole entry, looked up): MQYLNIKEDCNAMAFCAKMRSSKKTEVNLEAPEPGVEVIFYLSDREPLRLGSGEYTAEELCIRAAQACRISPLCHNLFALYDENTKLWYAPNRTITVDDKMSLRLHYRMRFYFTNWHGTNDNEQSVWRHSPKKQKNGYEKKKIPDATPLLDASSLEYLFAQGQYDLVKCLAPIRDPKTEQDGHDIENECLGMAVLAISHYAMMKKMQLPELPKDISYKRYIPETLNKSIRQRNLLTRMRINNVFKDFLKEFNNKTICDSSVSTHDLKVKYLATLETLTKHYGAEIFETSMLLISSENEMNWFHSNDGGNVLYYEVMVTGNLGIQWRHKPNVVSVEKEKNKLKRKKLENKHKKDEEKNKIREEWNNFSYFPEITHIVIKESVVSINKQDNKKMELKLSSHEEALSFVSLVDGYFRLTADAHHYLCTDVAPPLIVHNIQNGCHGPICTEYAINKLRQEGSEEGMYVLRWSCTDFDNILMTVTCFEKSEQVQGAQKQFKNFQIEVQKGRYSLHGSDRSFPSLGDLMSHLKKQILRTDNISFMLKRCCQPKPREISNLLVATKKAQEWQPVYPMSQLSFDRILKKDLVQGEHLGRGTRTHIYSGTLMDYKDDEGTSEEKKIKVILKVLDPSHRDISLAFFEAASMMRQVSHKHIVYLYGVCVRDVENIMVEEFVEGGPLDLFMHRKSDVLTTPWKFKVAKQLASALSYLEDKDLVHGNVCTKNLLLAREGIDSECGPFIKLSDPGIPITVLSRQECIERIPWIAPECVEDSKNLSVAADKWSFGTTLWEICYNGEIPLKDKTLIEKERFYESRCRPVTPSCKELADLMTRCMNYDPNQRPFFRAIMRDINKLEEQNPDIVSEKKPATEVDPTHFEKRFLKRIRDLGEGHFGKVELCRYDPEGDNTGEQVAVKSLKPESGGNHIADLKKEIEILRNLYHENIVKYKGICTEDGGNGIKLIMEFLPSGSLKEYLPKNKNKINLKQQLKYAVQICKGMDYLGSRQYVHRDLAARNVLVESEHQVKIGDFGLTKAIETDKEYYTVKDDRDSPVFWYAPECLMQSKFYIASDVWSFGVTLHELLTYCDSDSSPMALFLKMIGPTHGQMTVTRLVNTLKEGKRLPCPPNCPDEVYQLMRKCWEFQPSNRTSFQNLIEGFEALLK
NNMT: Nicotinamide N-methyltransferase (NNMT, Homo sapiens, UniProt P40261)
Sequence of UniProt P40261 (whole entry, looked up): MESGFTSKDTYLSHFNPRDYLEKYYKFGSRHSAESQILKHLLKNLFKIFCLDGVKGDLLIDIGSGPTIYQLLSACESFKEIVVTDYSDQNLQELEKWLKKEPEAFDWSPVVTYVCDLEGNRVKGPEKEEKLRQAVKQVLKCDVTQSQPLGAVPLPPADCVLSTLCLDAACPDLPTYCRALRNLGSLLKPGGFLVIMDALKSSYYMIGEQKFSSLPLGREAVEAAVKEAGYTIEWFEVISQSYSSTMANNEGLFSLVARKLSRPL
NTSR1: Neurotensin receptor type 1 (NTSR1, Homo sapiens, UniProt P30989)
Sequence of UniProt P30989 (whole entry, looked up): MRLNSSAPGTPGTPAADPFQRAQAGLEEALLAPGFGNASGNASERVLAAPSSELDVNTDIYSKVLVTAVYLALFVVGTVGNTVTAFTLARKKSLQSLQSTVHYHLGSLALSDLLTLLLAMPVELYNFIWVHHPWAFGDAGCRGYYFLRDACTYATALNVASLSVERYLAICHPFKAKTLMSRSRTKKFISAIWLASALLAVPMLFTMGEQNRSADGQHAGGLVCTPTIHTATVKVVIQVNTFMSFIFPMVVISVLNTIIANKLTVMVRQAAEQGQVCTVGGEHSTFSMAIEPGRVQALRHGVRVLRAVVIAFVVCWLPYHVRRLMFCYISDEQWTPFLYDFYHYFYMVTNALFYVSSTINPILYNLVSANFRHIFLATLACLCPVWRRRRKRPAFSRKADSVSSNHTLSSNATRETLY
ADRB2: Beta-2 adrenergic receptor (ADRB2, Homo sapiens, UniProt P07550)
Sequence of UniProt P07550 (whole entry, looked up): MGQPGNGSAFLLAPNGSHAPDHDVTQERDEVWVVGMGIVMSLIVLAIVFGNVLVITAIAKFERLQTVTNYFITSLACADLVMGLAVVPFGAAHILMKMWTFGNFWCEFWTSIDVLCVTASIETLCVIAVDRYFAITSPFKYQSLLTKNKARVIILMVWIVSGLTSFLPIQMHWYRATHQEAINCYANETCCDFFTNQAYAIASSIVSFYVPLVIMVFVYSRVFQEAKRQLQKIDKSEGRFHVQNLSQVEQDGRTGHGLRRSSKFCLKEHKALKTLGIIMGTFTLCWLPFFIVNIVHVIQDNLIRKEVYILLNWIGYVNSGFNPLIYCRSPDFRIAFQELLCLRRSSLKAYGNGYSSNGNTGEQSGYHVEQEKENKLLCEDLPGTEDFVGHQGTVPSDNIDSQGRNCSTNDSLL
SLC7A5: Large neutral amino acids transporter small subunit 1 (SLC7A5, Homo sapiens, UniProt Q01650)
Sequence of UniProt Q01650 (whole entry, looked up): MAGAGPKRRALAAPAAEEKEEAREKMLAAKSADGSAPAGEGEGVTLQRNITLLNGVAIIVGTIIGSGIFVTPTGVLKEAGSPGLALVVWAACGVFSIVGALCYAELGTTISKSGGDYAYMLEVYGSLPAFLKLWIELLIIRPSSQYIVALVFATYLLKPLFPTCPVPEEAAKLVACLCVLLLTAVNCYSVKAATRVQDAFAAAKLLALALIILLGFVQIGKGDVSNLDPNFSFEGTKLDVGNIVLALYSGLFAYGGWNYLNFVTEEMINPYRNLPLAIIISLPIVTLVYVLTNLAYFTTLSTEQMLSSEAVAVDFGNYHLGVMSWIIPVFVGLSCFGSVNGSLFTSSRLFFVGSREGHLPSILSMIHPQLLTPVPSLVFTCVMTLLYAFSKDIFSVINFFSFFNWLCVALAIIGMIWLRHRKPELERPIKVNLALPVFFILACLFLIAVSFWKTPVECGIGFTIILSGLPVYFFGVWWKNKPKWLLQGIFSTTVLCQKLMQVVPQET
MAOB: Amine oxidase [flavin-containing] B (MAOB, Homo sapiens, UniProt P27338)
Sequence of UniProt P09391 (whole entry, looked up): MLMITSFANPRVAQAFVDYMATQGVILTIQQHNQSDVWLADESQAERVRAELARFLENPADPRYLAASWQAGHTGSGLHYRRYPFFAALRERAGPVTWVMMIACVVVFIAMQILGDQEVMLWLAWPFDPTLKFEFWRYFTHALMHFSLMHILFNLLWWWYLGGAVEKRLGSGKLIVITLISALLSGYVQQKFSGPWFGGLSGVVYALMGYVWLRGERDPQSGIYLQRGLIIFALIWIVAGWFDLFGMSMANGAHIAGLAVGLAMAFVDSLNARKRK

Compound	target	test	system	setting	IC50
N#CSc1sc(N)nc1-c1ccccc1	Uncharacterized protein	enzyme activity, inhibitor, coupled colorimetric	–	together with: E. coli pyrophosphatase coupling	24.5 µM
CCn1nc(Cl)c2c1-c1cnc(N)c(c1)O[C@H](C)c1cc(F)ccc1-c1nn(C)cc1C2	EPHA5 (Homo sapiens, UniProt P54756)	enzyme activity, inhibitor, radiometric	–	–	0.635 µM
COc1ccc(CN2C3(NC(c4ccc(OC)cc4)C24C(=O)Nc2ccccc24)C(=O)Nc2ccccc23)cc1 (centres unmarked)	PIK3CD (Homo sapiens, UniProt O00329)	enzyme activity, inhibitor, ADP detection	–	–	0.687 µM
O=C(O)Cc1cc2c(cc1C(=O)c1cccc(Cl)c1)OCO2	Gria1	ion current, patch clamp	–	–	4.31 µM
O=c1cc(-c2ccc(O)cc2)oc2c([C@@H]3OC[C@H](O)[C@H](O)[C@H]3O)c(O)c([C@@H]3O[C@H](CO)[C@@H](O)[C@H](O)[C@H]3O)c(O)c12	CAMK2D	binding, LanthaScreen Eu binding	–	3 h	0.93 µM
CCC1(CO)CCCN(C(=O)c2ccc(CSC)o2)C1 (centres unmarked)	DNA dC->dU-editing enzyme APOBEC-3B	enzyme activity, inhibitor, HPLC	–	–	439 µM
COc1ccc(C(=O)CC2(O)C(=O)Nc3c(Br)cc(C)cc32)cc1 (centres unmarked)	ppa	enzyme activity, inhibitor	–	–	> 100 µM
Cc1cnc(Nc2ccc3c(c2)CCN(C(=O)/C=C/C(=O)c2ccc(Cl)cc2)C3)nc1-c1cnn(C(C)C)c1	JAK1	enzyme activity, inhibitor, ADP detection	–	–	> 0.03 µM
CCN(CC)CC(=O)Nc1cccc(-n2cc(-c3ccc4ccc(-c5cn(-c6cccc(NC(=O)CN(CC)CC)c6)nn5)cc4c3)nn2)c1	CAMK2D	enzyme activity, inhibitor	–	–	> 10 µM
COc1ccc(C(N)=O)cn1	NNMT	enzyme activity in cells, inhibitor	–	–	1 µM
COc1ccccc1C1CCN(c2nc(C3(F)CC3)nc3c(Cl)cc(N(C)CCO)cc23)CC1	NTSR1	G protein activation, antagonist	–	–	0.765 µM
Cc1cccc(C2CC(=O)N2S(=O)(=O)c2cccc(Cl)c2)c1 (centres unmarked)	glpG (Escherichia coli, UniProt P09391)	enzyme activity, inhibitor	–	–	5 µM
O=C(O)c1cc(-c2ccc(CN3CCCC(CO)C3)o2)ccc1Cl (centres unmarked)	DNA dC->dU-editing enzyme APOBEC-3B, C-terminal domain (Homo sapiens, UniProt Q9UH17)	deaminase activity, inhibitor, UDG-coupled deamination	–	–	45.8 ± 3 µM
CC[C@H]1CN(C(=O)NCC(F)(F)F)C[C@H]1Nc1c(C(F)(F)F)cnc2[nH]ccc12	JAK1	enzyme activity, inhibitor, ADP detection	–	–	0.718 µM
Cc1cc(NC2CCN(C)CC2)ccc1-c1cc2c(N3CCC[C@H](C(=O)NCc4ccc(OC(F)(F)F)cc4)C3)ncnc2[nH]1	STK4 (Homo sapiens, UniProt Q13043)	enzyme activity, inhibitor, mobility shift	–	–	6.43 µM
Cc1nn(-c2cccc(N)c2)c(=O)c2cnc(Nc3ccc(N4CCNCC4)cc3)nc12	PIK3C2A (Homo sapiens, UniProt O00443)	kinase activity, inhibitor, SelectScreen kinase profiling	–	–	> 10 µM
c1ccc(Nc2nc(NC3CCCCC3)c3ccccc3n2)cc1	ADRB2	cAMP production, antagonist, GloSensor	–	together with: isoproterenol 1 µM	> 50 µM
COc1ccc(Br)cc1C[N+](C)(C)CCCN1c2ccccc2CCc2ccc(Cl)cc21	Uncharacterized protein	enzyme activity, inhibitor, coupled colorimetric	–	together with: E. coli pyrophosphatase coupling	36.6 µM
CC(C)(C)OC(=O)N1CCN(c2ccc3c(O)c(C(=O)NCc4ccc(C#N)nc4)ncc3n2)CC1	KDM4D (Homo sapiens, UniProt Q6B0I6)	enzyme activity, inhibitor	–	–	> 10 µM

Compound	target	test	system	setting	IC50
COc1cc2nc(C3CC3)nc(N3CCC(c4ccccc4OC)CC3)c2cc1OC	NTSR1	G protein activation, antagonist, BRET	–	–	10.2 µM
CN(C)c1nc(NCc2ccc(F)cc2F)c(/N=N/c2ccc(Cl)cc2)c(N(C)C)n1	Chitinase (OfChi-h, Ostrinia furnacalis, UniProt Q4AE59)	enzyme activity, inhibitor, fluorescence	–	–	0.12 µM
N=C(N)Nc1cccc(NC(P(=O)(O)O)P(=O)(O)O)c1	polyphosphate kinase 2 (Cytophaga hutchinsonii, UniProt A0A6N4SMB5)	enzyme activity, inhibitor, HPLC	–	30 min, 37 °C, together with: 0.04 mM ADP and 0.3 mM polyP	58 ± 0.48 µM
Clc1ccccc1C1=Nn2c(nnc2C2CCCCC2)SC1	Uncharacterized protein	inhibitor, coupled colorimetric	Trypanosoma brucei	–	566 µM
COc1cccc2c(=O)c(CO)coc12	NNMT	enzyme activity in cells, inhibitor	–	–	> 31.6 µM
O=C(CSc1nnc(-c2ccco2)c(-c2ccco2)n1)c1ccc(Br)cc1	Uncharacterized protein	enzyme activity, inhibitor, coupled colorimetric	–	together with: E. coli pyrophosphatase coupling	54.3 µM
COC(=O)Cc1cc2c(cc1C(=O)c1ccc(Cl)cc1Cl)OCO2	Gria1	glutamate-evoked current, inhibitor, whole-cell patch clamp	HEK293T, homomeric receptor	–	5.01 µM
FC(F)(F)c1cccc(Nc2nc(NC3CCCCC3)c3ccccc3n2)c1	ADRB2	β-arrestin recruitment, antagonist	–	–	3 µM
COc1cccc(NC(=O)N2CCOc3ccccc32)c1	Uncharacterized protein	enzyme activity, inhibitor, coupled colorimetric	–	together with: E. coli pyrophosphatase coupling	77.8 µM
Cc1nnc(Nc2ccc(O)cc2)nc1O	DNA dC->dU-editing enzyme APOBEC-3B	enzyme activity, inhibitor, HPLC	–	–	131 µM
N[C@@H](Cc1c[nH]c2ccc(OCc3ccccc3I)cc12)C(=O)O	SLC7A5	transporter uptake, inhibitor, radiometric	–	–	16.6 µM
O=C1c2cc(O)cc(O)c2C(=O)c2c(O)cc(CO)cc21	MAOB	enzyme activity, inhibitor	–	–	21.7 µM
CC(C)c1ccc(/C=C/C(=O)c2ccc(Cl)cc2)cc1	MAOB	enzyme activity, inhibitor	–	–	0.066 µM
COc1ccc(OC)c(C2=Nn3c(nnc3-c3ccc(Cl)cc3)SC2)c1	ppa	enzyme activity, inhibitor	–	–	> 100 µM
O=Cc1ccc2c(c1C#Cc1ccc(O)cc1)C(c1ccc(O)cc1)(c1ccc(O)cc1)c1cc(O)ccc1-2	PDE4D (Homo sapiens, UniProt Q08499)	enzyme activity, inhibitor	–	–	0.274 µM
O=C(CCNC(=O)CNC(=O)CC(c1ccccc1)(c1ccccc1)c1ccccc1)NC[C@H]1CCCN(C(=O)c2ccc(F)cc2)C1	CHRM5 (Homo sapiens, UniProt P08912)	ligand displacement, radioligand	–	cell membranes	> 30 µM
Clc1ccc(Nc2nc(NC3CCCCC3)c3ccccc3n2)cc1Cl	ADRB2	β-arrestin recruitment, antagonist	–	–	3 µM
N[C@@H](Cc1c[nH]c2ccc(OCc3cccc(-c4ccco4)c3)cc12)C(=O)O	SLC7A5	transporter uptake, inhibitor, radiometric	–	–	20.4 µM
COc1ccc(C2=Nn3c(nnc3C3CCCCC3)SC2)cc1	ppa	enzyme activity, inhibitor	–	–	> 100 µM

Repeated from above:
Compound	target	test	system	setting	IC50
Cc1nn(-c2cccc(N)c2)c(=O)c2cnc(Nc3ccc(N4CCNCC4)cc3)nc12	PIK3C2A (Homo sapiens, UniProt O00443)	kinase activity, inhibitor, SelectScreen kinase profiling	–	–	> 10 µM
CCC1(CO)CCCN(C(=O)c2ccc(CSC)o2)C1 (centres unmarked)	DNA dC->dU-editing enzyme APOBEC-3B	enzyme activity, inhibitor, HPLC	–	–	439 µM
Cc1cc(NC2CCN(C)CC2)ccc1-c1cc2c(N3CCC[C@H](C(=O)NCc4ccc(OC(F)(F)F)cc4)C3)ncnc2[nH]1	STK4 (Homo sapiens, UniProt Q13043)	enzyme activity, inhibitor, mobility shift	–	–	6.43 µM
CN(C)c1nc(NCc2ccc(F)cc2F)c(/N=N/c2ccc(Cl)cc2)c(N(C)C)n1	Chitinase (OfChi-h, Ostrinia furnacalis, UniProt Q4AE59)	enzyme activity, inhibitor, fluorescence	–	–	0.12 µM
O=C(CCNC(=O)CNC(=O)CC(c1ccccc1)(c1ccccc1)c1ccccc1)NC[C@H]1CCCN(C(=O)c2ccc(F)cc2)C1	CHRM5 (Homo sapiens, UniProt P08912)	ligand displacement, radioligand	–	cell membranes	> 30 µM
Cc1cccc(C2CC(=O)N2S(=O)(=O)c2cccc(Cl)c2)c1 (centres unmarked)	glpG (Escherichia coli, UniProt P09391)	enzyme activity, inhibitor	–	–	5 µM
